# Published values pooled from the literature.
# Each line is one published result; not all experiments were run side by side. Numbers after ± are the reported error.
# rhlR: HTH-type quorum-sensing regulator RhlR (rhlR, Pseudomonas aeruginosa, UniProt P54292)
# Chain of UniProt P54292 (whole entry, looked up): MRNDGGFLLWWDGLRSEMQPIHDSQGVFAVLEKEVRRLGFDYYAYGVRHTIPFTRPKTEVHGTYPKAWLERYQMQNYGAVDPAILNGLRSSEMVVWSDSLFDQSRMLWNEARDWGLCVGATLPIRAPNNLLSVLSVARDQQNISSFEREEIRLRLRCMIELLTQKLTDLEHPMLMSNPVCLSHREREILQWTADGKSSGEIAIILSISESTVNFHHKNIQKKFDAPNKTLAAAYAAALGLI
# HDAC6 ZnF-UBD domain: Protein deacetylase HDAC6, ZnF-UBD domain (HDAC6, Homo sapiens, UniProt Q9UBN7)
# Chain of UniProt Q9UBN7 (whole entry, looked up): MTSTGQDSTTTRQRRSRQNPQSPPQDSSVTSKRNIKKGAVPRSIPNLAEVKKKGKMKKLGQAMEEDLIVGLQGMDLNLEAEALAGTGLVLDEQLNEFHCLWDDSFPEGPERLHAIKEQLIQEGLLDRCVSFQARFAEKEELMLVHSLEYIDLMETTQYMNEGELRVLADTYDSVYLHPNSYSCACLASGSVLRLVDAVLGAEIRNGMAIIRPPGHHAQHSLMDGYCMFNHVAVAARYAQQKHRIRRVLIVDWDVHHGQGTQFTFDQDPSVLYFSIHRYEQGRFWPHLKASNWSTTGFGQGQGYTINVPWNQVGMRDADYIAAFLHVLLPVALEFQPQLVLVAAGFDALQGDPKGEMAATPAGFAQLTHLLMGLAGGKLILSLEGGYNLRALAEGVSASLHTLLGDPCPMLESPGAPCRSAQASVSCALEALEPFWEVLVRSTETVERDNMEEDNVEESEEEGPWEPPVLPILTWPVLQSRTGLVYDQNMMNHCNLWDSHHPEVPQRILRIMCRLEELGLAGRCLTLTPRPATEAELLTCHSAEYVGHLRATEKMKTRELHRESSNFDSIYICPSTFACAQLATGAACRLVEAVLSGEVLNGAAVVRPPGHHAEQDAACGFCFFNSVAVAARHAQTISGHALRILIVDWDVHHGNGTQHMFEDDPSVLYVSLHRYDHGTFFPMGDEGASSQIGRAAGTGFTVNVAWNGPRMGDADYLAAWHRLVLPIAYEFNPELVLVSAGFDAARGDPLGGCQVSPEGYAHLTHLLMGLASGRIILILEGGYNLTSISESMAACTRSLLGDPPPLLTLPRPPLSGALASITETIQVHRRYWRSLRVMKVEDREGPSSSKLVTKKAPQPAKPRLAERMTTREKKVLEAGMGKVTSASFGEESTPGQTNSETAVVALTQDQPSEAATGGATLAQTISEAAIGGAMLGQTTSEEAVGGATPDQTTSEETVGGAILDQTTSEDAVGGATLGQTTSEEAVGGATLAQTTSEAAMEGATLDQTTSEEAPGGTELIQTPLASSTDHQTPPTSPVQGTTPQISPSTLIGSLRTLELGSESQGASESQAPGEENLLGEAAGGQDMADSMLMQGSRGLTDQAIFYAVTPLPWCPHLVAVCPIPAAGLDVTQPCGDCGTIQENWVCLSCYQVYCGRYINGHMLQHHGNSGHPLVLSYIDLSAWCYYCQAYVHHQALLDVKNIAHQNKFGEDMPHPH
# Chain of UniProt P61075 (whole entry, looked up): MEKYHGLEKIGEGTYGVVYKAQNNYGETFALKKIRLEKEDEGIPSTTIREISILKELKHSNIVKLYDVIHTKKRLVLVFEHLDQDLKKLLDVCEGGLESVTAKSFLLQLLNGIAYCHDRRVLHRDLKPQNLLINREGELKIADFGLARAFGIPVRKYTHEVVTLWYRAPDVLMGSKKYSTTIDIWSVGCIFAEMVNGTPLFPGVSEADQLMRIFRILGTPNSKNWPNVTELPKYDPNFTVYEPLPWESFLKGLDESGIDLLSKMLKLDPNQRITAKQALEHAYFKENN
# Chain of UniProt Q00536 (whole entry, looked up): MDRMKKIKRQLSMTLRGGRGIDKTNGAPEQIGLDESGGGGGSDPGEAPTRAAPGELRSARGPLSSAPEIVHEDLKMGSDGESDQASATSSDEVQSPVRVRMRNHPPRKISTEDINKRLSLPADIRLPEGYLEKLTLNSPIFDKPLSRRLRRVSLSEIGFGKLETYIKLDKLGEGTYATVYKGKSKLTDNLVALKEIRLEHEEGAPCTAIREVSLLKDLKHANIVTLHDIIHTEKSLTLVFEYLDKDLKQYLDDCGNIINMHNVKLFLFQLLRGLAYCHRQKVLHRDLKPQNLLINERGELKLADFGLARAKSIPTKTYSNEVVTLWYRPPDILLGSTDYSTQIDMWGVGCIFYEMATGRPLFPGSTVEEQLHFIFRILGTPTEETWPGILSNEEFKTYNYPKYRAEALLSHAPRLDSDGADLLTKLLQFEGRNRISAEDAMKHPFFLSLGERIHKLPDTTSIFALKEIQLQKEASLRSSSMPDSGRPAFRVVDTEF
# Chain of UniProt P54753 (whole entry, looked up): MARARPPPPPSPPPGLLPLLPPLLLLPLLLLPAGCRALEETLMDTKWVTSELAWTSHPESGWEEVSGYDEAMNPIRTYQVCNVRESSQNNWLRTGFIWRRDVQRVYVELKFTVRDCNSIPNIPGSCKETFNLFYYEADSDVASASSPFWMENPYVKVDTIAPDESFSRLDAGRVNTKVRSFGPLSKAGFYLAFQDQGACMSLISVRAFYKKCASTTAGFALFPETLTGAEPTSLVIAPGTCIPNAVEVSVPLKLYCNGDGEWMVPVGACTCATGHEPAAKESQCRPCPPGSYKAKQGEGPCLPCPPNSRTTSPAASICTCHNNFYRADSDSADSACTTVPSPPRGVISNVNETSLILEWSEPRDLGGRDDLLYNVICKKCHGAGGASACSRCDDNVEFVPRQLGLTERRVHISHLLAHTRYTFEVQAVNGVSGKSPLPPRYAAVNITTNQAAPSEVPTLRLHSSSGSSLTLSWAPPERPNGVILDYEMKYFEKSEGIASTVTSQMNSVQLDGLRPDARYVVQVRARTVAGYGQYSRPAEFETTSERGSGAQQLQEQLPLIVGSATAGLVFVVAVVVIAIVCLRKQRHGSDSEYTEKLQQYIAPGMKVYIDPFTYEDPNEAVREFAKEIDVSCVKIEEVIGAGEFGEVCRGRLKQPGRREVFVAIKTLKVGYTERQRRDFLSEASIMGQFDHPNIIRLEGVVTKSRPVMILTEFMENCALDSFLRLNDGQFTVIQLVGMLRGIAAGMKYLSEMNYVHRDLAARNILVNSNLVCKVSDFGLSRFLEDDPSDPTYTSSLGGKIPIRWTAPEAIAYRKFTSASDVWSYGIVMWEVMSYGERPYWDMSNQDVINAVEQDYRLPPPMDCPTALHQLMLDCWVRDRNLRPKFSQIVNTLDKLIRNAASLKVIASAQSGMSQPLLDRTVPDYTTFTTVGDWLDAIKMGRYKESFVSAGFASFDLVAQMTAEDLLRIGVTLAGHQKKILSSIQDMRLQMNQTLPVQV
# Chain of UniProt Q6IQ55 (whole entry, looked up): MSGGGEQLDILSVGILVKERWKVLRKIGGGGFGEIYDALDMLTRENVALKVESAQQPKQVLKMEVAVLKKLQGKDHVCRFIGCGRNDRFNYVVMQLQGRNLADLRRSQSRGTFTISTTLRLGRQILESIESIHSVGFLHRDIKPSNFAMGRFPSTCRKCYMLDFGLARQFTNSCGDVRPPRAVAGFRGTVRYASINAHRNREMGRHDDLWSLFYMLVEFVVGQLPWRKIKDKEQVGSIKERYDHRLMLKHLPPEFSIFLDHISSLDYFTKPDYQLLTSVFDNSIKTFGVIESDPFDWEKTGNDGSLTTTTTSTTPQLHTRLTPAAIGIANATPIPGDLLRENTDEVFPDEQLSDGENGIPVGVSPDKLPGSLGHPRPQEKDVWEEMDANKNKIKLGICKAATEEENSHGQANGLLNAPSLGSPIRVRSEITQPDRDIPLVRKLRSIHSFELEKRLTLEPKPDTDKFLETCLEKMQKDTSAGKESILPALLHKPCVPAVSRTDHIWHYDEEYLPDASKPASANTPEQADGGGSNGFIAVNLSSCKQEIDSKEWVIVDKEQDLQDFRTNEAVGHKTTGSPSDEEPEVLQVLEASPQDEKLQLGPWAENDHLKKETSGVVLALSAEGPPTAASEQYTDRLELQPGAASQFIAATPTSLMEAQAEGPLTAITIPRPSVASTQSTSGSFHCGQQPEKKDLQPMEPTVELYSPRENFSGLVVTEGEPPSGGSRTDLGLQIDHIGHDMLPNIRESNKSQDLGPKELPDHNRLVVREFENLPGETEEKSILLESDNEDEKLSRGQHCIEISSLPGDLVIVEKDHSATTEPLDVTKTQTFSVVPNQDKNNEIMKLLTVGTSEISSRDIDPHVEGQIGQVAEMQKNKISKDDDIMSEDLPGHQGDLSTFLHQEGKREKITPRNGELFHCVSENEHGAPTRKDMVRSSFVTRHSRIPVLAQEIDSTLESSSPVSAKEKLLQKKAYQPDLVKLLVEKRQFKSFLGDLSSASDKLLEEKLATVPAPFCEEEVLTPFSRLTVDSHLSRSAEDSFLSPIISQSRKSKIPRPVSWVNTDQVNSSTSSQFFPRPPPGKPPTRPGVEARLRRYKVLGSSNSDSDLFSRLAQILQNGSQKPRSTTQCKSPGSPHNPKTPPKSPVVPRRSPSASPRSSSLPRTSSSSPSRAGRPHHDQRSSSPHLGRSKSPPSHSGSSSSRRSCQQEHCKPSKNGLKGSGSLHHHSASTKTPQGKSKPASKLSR
# Chain of UniProt O14965 (whole entry, looked up): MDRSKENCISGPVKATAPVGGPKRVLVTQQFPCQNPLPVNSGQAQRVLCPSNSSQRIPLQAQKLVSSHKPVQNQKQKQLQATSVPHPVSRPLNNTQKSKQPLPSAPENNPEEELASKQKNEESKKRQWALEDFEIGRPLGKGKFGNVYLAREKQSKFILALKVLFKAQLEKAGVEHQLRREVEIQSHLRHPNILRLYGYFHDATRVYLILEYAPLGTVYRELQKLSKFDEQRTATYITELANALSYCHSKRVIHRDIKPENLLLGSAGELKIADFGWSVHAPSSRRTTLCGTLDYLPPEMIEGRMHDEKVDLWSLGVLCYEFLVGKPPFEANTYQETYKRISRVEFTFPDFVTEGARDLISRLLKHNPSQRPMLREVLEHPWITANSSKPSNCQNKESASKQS
Compound,tested on,assay,system,conditions,how to read,endpoint,value
CC[C@@H]1[C@H](F)C(=O)N[C@@H]1COc1nccc2cc(C(N)=O)c(OC)cc12,"STK4 (Homo sapiens, UniProt Q13043)","ATP probe binding, KiNativ profiling, refers to: MST1 Lys1 probe site",THP-1 cell lysate,,,IC50,> 5 µM
COc1cc(C#CC(=O)c2ccc(Cl)cc2)ccc1O,rhlR,"reporter gene, inhibitor, quorum sensing reporter strain",,"10 µM, 1.5 h",baseline: DMSO,remaining activity,65%
O=C(O)CCc1cnn(-c2ccccc2)c1,HDAC6 ZnF-UBD domain,,,,,Kd,> 1000 µM
COc1cc(-c2cncc3c2CN(C)Cc2cc(N4CCNCC4)ccc2-3)cc(OC)c1OC,"MAP4K1 (Homo sapiens, UniProt Q92918)",kinase activity,,"1 µM, human enzyme, together with: ATP 10 µM",baseline: DMSO control,remaining activity,109%
COc1cc(-c2[nH]nnc2C(=O)c2ccccc2)ccc1O,rhlR,"reporter gene, inhibitor",Pseudomonas aeruginosa QS reporter strain,"10 µM, 1.5 h",baseline: DMSO control,remaining activity,75%
Cn1cc(-c2ccc(-c3cncc(Cl)c3N3CCC4(CCNC4=O)CC3)cc2)cn1,COLO 205,"gene expression, microarray, refers to: HSPA1B (HSPA1A) mRNA",,"concentration not given, 6 h",baseline: untreated cells,log2 fold change,4.31
O=C(O)CCC(=O)c1cccs1,HDAC6 ZnF-UBD domain,,,,,Kd,555 µM
COc1cc(F)ccc1-c1ncnc(Nc2cccc(C[S@](C)(=N)=O)c2)n1,"FGFR4 (Homo sapiens, UniProt P22455)",kinase activity,,"10 µM, together with: 10 µM ATP",,remaining activity,98%
CC(C)C[C@H](NC(=O)C[C@H](O)[C@H](CC(C)C)NC(=O)[C@H](Cc1c[nH]cn1)NC(=O)CNC(=O)[C@@H](NC(=O)[C@H](C)NC(=O)[C@H](Cc1c[nH]c2ccccc12)NC(=O)[C@H](CCC(N)=O)NC(=O)[C@@H](Cc1ccccc1)NC(=O)COCCOCCNC(=O)CCC(C(=O)O)N1CCN(CC(=O)O)CCN(CC(=O)O)CCN(CC(=O)O)CC1)C(C)C)C(N)=O (stereo partly shown) [lutetium-177 labelled],,,"BALB/c nu/nu mice, female, kidneys","50 pmol, 1 h, together with: PA 300 µg",,tissue uptake,5.3 ± 0.7 %ID/g
COc1cc(C#CC(=O)C(C)C)ccc1O,rhlR,"reporter gene, inhibitor, quorum sensing reporter strain",,"10 µM, 1.5 h",baseline: DMSO,remaining activity,91%
COc1ccc(F)cc1C(=O)NCc1ccc(-c2nn([C@@H](C)C(F)(F)F)c(N)c2C(N)=O)cc1,"Cyclin-dependent kinase 16, with cyclin Y (CDK16, Homo sapiens, UniProt Q00536)","kinase activity, inhibitor, HotSpot radiometric",,"100 nM, together with: ATP 10 µM",,remaining activity,92.3 ± 1.5%
COc1ccc(C(=O)C#Cc2ccc(O)c(OC)c2)cc1,rhlR,"reporter gene, inhibitor, quorum sensing reporter strain",,"10 µM, 1.5 h",baseline: DMSO,remaining activity,96%
CN(C)CC#Cc1ccc2[nH]c3c(c2c1)-c1nc(N)ncc1CCC3,"TTBK2 (Homo sapiens, UniProt Q6IQ55)","kinase activity, inhibitor, radiometric",,"1 µM, together with: ATP at Km",,remaining activity,98%
OC(CCN1CCCCC1)(c1ccccc1)C1CC2C=CC1C2 (stereo not shown),,resting-state EEG,healthy elderly humans,"oral, 2 mg, eyes closed, LS mean",baseline: baseline,change in EEG Alpha2-power Pz-O2,20.1%
O=C(NC1CCC1)c1ccc2nc(-c3cccc(NS(=O)(=O)NCCN4CCCCC4)c3)cn2c1,"CRK2 (Plasmodium falciparum, UniProt P61075)",enzyme activity,,10 µM,,remaining activity,89%
O=C(O)c1ccc(Nc2ncc3c(n2)-c2ccc(Cl)cc2C(c2c(F)cccc2F)=NC3)cc1,GSK3ß(h),kinase activity,,1 µM,,remaining activity,102%
CC#CC(=O)N1CCC[C@H]1c1nc(-c2ccc(C(=O)Nc3ccccn3)cc2)c2c(N)nccn12,"Aurora kinase A (AURKA, Homo sapiens, UniProt O14965)","kinase activity, inhibitor, HotSpot radiometric",,"100 nM, together with: ATP 10 µM",,remaining activity,98.3 ± 2.7%
COc1cc(Nc2ncc3c(n2)-c2ccc(Cl)cc2C(c2c(F)cccc2OC)=NC3)ccc1C(=O)O,SRPK1,kinase activity,,1 µM,,remaining activity,93%
C=CC(=O)N1CCC[C@@H](n2nc(-c3ccc(Oc4ccccc4)cc3)c3c(N)ncnc32)C1,"EPHB3 (Homo sapiens, UniProt P54753)",,,1 µM,,remaining activity,142%

# Excerpt of the above:
Compound,tested on,assay,system,conditions,how to read,endpoint,value
COc1cc(Nc2ncc3c(n2)-c2ccc(Cl)cc2C(c2c(F)cccc2OC)=NC3)ccc1C(=O)O,SRPK1,kinase activity,,1 µM,,remaining activity,93%
O=C(O)CCC(=O)c1cccs1,HDAC6 ZnF-UBD domain,,,,,Kd,555 µM
